Published values collected from several papers.
Compare with care: the assays were run in different laboratories. ± marks the error that the study gave.
DCN1-like protein 1 PONY domain: DCN1-like protein 1, PONY domain (Homo sapiens, UniProt Q96GG9)
TGFBR1: TGF-beta receptor type-1 (TGFBR1, Homo sapiens, UniProt P36897)
UniProt P36897, sequence (whole entry, looked up): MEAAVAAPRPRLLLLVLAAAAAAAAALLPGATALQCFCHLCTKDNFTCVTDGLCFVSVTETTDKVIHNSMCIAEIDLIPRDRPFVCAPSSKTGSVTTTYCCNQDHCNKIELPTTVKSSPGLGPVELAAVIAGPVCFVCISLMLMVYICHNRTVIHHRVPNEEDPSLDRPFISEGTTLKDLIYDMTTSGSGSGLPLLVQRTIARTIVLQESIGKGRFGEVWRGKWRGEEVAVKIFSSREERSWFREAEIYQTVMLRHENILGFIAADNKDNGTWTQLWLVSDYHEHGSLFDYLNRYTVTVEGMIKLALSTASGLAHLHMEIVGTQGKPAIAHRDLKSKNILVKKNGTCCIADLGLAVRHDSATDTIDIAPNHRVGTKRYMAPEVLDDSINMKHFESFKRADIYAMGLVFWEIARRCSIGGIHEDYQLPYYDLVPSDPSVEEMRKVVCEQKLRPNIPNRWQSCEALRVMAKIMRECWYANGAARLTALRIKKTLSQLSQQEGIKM
TYMS: Thymidylate synthase (TYMS, Homo sapiens, UniProt P04818)
UniProt P04818, sequence (whole entry, looked up): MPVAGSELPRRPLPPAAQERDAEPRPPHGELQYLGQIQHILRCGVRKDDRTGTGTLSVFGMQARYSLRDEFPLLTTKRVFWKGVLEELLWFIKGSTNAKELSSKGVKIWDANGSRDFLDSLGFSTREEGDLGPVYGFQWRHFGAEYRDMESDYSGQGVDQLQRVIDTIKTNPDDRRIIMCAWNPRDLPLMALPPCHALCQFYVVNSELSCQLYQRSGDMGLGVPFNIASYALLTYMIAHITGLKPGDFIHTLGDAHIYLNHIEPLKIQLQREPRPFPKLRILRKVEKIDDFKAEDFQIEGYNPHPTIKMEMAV
UniProt Q8TDW0, sequence (whole entry, unmodified, looked up): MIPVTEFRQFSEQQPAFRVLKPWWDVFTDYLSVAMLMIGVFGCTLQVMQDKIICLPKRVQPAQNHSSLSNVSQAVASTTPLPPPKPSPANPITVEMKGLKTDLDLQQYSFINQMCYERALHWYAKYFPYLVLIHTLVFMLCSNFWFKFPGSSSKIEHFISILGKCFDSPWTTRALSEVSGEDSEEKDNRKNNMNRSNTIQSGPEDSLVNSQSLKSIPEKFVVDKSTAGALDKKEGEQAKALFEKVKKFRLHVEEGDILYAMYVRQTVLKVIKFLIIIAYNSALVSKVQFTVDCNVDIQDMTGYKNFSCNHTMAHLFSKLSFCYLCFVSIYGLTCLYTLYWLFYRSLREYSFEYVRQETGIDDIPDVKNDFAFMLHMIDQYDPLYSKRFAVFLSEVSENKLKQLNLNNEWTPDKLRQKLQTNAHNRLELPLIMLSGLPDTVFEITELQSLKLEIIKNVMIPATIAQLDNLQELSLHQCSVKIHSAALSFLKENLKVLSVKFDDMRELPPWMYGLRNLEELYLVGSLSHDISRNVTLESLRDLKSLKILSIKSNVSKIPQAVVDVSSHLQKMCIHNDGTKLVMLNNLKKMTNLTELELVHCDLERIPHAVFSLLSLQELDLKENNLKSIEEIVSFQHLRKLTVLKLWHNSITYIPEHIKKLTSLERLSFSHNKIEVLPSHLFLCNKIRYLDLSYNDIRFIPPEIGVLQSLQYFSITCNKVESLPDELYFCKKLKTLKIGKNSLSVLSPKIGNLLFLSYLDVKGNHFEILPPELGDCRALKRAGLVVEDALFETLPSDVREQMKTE
UniProt P10599, sequence (whole entry, looked up): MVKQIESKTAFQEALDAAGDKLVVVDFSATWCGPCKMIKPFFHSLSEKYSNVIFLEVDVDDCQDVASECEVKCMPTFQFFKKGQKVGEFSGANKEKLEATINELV
UniProt O43914, sequence (whole entry, looked up): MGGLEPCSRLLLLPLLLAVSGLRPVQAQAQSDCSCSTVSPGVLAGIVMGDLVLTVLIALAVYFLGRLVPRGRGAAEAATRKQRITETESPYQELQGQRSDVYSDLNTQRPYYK
UniProt P42685, sequence (whole entry, looked up): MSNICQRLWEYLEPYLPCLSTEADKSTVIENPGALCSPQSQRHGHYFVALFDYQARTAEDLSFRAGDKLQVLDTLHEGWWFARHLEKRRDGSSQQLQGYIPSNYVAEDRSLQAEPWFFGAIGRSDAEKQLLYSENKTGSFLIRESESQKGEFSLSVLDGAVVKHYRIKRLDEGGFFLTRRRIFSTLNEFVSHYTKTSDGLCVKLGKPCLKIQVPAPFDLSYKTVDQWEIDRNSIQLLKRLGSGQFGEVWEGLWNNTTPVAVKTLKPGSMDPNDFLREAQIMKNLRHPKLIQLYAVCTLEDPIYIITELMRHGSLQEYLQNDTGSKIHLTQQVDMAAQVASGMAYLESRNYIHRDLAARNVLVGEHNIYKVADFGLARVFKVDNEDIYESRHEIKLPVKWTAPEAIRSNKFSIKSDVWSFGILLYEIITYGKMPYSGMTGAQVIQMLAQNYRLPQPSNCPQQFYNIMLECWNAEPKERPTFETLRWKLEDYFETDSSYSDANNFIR
UniProt Q15391, sequence (whole entry, unmodified, looked up): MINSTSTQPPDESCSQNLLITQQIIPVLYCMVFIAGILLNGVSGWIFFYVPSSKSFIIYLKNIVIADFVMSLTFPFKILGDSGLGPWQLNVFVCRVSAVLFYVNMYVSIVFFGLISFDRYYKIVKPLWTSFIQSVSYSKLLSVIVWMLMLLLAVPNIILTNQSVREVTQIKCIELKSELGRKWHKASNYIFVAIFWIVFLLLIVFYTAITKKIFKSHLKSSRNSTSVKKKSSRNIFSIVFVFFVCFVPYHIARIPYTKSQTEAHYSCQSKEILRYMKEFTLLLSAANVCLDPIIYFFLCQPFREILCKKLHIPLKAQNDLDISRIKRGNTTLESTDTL
UniProt P21728, sequence (whole entry, looked up): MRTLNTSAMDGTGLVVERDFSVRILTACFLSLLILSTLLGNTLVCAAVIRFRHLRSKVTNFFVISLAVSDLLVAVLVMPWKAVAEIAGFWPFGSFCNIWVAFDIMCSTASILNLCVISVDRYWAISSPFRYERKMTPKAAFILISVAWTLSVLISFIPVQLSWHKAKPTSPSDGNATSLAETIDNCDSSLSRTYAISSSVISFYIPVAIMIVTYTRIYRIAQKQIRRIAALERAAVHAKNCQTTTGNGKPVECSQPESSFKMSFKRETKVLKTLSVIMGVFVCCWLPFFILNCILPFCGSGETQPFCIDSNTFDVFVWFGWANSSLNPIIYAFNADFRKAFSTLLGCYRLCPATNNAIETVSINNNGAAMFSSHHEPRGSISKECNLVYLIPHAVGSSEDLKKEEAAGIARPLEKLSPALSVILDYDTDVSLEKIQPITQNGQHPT
UniProt P03951, sequence (whole entry, looked up): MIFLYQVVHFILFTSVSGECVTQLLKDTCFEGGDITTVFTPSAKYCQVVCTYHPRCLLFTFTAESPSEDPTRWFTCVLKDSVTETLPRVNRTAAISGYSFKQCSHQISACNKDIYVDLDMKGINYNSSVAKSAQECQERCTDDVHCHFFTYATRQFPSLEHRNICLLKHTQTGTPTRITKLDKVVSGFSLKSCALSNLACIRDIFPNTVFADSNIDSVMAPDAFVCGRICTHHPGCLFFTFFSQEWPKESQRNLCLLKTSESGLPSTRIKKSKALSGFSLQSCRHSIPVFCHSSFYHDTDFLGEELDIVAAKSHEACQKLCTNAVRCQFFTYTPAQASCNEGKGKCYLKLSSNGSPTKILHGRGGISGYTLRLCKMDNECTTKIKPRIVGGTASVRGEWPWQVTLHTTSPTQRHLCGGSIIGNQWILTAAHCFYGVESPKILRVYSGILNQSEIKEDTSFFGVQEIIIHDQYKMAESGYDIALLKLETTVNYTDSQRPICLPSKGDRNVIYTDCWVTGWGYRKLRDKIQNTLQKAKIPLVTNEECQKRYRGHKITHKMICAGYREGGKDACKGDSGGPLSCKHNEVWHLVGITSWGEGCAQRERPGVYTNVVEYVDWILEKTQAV
UniProt Q8K3Y3, sequence (whole entry, looked up): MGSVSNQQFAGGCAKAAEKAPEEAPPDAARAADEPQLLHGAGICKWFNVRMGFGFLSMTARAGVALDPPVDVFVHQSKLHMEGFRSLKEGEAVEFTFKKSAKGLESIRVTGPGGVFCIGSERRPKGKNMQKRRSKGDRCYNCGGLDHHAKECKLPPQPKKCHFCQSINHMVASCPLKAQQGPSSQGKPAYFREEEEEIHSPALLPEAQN
UniProt P23975, sequence (whole entry, looked up): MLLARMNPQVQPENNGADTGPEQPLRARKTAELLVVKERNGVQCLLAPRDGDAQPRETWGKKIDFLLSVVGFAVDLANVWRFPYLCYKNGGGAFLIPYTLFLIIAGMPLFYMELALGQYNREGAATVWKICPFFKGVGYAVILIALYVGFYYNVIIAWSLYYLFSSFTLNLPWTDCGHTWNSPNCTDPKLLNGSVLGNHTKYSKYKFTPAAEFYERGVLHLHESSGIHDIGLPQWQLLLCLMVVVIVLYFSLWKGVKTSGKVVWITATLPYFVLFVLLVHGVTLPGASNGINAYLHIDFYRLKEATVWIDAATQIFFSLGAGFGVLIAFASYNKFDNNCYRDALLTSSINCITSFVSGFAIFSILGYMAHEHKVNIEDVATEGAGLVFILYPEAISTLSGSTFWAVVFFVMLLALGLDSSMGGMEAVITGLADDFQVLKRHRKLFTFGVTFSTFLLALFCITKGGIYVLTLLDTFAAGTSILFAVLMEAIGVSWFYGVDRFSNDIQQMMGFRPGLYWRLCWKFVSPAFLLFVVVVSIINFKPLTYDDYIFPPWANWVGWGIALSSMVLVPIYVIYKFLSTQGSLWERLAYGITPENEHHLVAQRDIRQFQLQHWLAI

| SMILES | tested on | assay | test system | setting | how to read | measurement | value |
| --- | --- | --- | --- | --- | --- | --- | --- |
| CCn1c(-c2nc3cc(C(=O)N4CCC[C@@H](N)C4)cc(OC)c3n2C)cc2cccnc21 | D(1A) dopamine receptor (DRD1, Homo sapiens, UniProt P21728) | antagonist, TR-FRET | – | – | – | IC50 | > 31600 nM |
| COc1cc(C(=O)NCC2(N(C)C)CCCC2)cc(OC)c1OCc1ccccc1 | glycine transporter 2 (Xenopus tropicalis, UniProt A0A7D9NK84, I281V/L621F/M283I) | glycine uptake, inhibitor | HEK293F expressing 3-residue mutant | with: [3H]glycine | – | IC50 | 57.7 nM |
| O=C(Nc1cccc2c(=O)cc(-c3nnn[nH]3)oc12)c1ccc(OCCCCc2ccccc2)cc1 | LRRC8A/LRRC8C (Homo sapiens, UniProt Q8IWT6+Q8TDW0, M48D/T48D) | whole-cell patch clamp | HCT116 LRRC8-/- expressing heteromers | -100 mV | – | IC50 | no effect |
| C/C(=C\CNc1ncnc2[nH]cnc12)CO | Gelsolin, N184K peptide (GSN, Homo sapiens, UniProt P06396) | – | – | – | – | IC50 | 19000 ± 1700 nM |
| CC(=O)c1n[nH]c2ccc(-c3cnc4ccc(N(C)C5CCOCC5)nn34)cc12 | TYRO protein tyrosine kinase-binding protein, with TREM1 (TYROBP, Homo sapiens, UniProt O43914) | split luciferase reporter | human cells | 6 h, treatment 48 h after induction, with: doxycycline induction | – | IC50 | 600 ± 100 nM |
| [H]/N=C(/N)c1ccc(NCc2nc3cc(C(=O)N(CCC(=O)O)c4ccccn4)ccc3n2C)cc1 | Vitamin K-dependent protein C (PROC, Homo sapiens, UniProt P04070) | – | – | – | – | IC50 | 1600 ± 100 nM |
| COc1ccnc(CNC(=O)c2cn(Cc3ccc(Cn4ccccc4=O)cc3)nc2C2CC2)c1F | Coagulation factor XI (F11, Homo sapiens, UniProt P03951) | – | – | – | – | IC50 | > 40000 nM |
| NC(=O)c1cccc2c1O/C(=C\c1ccc(C(=O)N[C@H]3CCNC3)s1)C2=O | Poly [ADP-ribose] polymerase 1 (PARP1, Homo sapiens, UniProt P09874) | inhibitor | – | – | – | IC50 | 92 nM |
| CC[C@@H]1[C@H](F)C(=O)N[C@@H]1COc1nccc2cc(C(N)=O)c(OC)cc12 | Inhibitor of nuclear factor kappa-B kinase subunit epsilon (IKBKE, Homo sapiens, UniProt Q14164) | ATP-site probe binding, inhibitor, ActivX ATP probe profiling | THP-1 cell lysate | probe site Lys1 | – | IC50 | 870 nM |
| CCCCCCCC/C=C1/C=C(C(F)(F)F)c2cc(OC)c(OC)cc21 | Thioredoxin (TXN, Homo sapiens, UniProt P10599) | insulin reduction, inhibitor | – | 1 h, 37 °C, preincubation | – | IC50 | no inhibition |
| C=CC(=O)NCc1ccccc1CN(C(=O)Nc1cccc(C(F)(F)F)c1)C1CCN(C(C)CCC)CC1 (centres unmarked) | DCN1-like protein 1 PONY domain | binding, inhibitor, TR-FRET | – | 24 h, racemic mixture | – | IC50 | 135 ± 129 nM |
| COc1ccccc1-c1nc(-c2ccc(F)cc2)c(-c2ccncc2)[nH]1 | TGFBR1 | binding, LanthaScreen kinase binding | – | – | – | IC50 | 8.5 ± 5.2 nM |
| Cc1ccc(S(=O)(=O)Nc2ccc(C)cc2NS(=O)(=O)c2cccc(C(F)(F)F)c2)cc1 | Protein lin-28 homolog A (Mus musculus, UniProt Q8K3Y3) | – | – | – | – | IC50 | 14800 nM |
| COc1c([C@H]2[C@H](C(=O)Nc3ccnc(C(N)=O)c3)O[C@@](C)(C(F)(F)F)[C@H]2C)ccc(F)c1F | Sodium-dependent noradrenaline transporter (SLC6A2, Homo sapiens, UniProt P23975) | functional activity, antagonist | – | – | – | IC50 | ≥ 30000 nM |
| CCN(CC)CCCC(C)Nc1ccnc2cc(Cl)ccc12 (centres unmarked) | Tyrosine-protein kinase JAK2 (JAK2, Homo sapiens, UniProt O60674) | enzyme activity, inhibitor | – | with: 10 µM ATP | – | IC50 | > 10000 nM |
| O=c1ccn([C@@H]2O[C@H](COP(=O)(O)OP(=O)(O)O[C@H]3O[C@H](CO)[C@@H](O)[C@H](O)[C@H]3O)[C@@H](O)[C@H]2O)c(=S)[nH]1 | P2Y purinoceptor 14 (P2RY14, Homo sapiens, UniProt Q15391, K277A) | – | – | – | – | Ki | > 3000 nM |
| Cc1cc(O)c2c(c1)C(=O)c1cccc(O)c1C2=O | HK-2 co-cultured with HepaRG | MTT | – | 16.67 µM, 48 h | relative to: untreated control | viability | 92.2 ± 3.27% |
| COc1ccc(Oc2ccc(CN(Cc3ccccc3)Cc3cnc4nc(N)nc(N)c4n3)cc2)cc1 | TYMS | inhibitor | – | – | – | IC50 | > 100000 nM |
| c1cc(CN2CCOCC2)cc(Nc2ncc(C3CC3)c(NCCc3c[nH]cn3)n2)c1 | 16-kinase panel | radiometric | – | 1 µM, ATP at Km | below 10% of control | number of kinases inhibited | 6 |
| CN1CCN(c2ccc(Nc3ncc4cc(C#N)c(=O)n(C5CCCC5)c4n3)cc2)CC1 | Tyrosine-protein kinase FRK (FRK, Homo sapiens, UniProt P42685) | – | – | – | – | IC50 | 102 nM |
| O=C(O)c1cc(O)c2c(c1)C(=O)c1cccc(O[C@@H]3O[C@H](CO)[C@@H](O)[C@H](O)[C@H]3O)c1C2=O | HK-2 co-cultured with HepaRG | MTT | – | 266.67 µM, 24 h | relative to: untreated control | cell viability | 93 ± 10.1% |
| CCN(Cc1cnc2nc(N)nc(N)c2n1)c1ccc(C(=O)c2ccccc2)cc1 | TYMS | inhibitor | – | – | – | IC50 | > 100000 nM |
| Fc1ccc(-c2nc(-c3c(F)cccc3F)[nH]c2-c2ccncc2)cc1 | TGFBR1 | binding, LanthaScreen kinase binding | – | – | – | IC50 | 46.9 ± 12.7 nM |
| C=CC(=O)NCCN(C(=O)Nc1cccc(C(F)(F)F)c1)C1CCN(C(C)CCC)CC1 (centres unmarked) | DCN1-like protein 1 PONY domain | binding, inhibitor, TR-FRET | – | 24 h, racemic mixture | – | IC50 | > 34500 nM |
| Fc1ccc(-c2nc(-c3c(F)cccc3Cl)[nH]c2-c2ccncc2)cc1 | TGFBR1 | binding, LanthaScreen kinase binding | – | – | – | IC50 | 41.5 ± 9.3 nM |
| Cc1nn(CC(F)(F)F)cc1Nc1ncc(Br)c(NCCc2cnc[nH]2)n1 | 16-kinase panel | radiometric | – | 1 µM, ATP at Km | below 10% of control | number of kinases inhibited | 0 |
